Measurements collected from several papers.
Numbered parts are unrelated; each lists some results of a single study. “And” joins repeats or separate records; there may be more than shown.
Sequence of UniProt Q02750 (whole entry, looked up): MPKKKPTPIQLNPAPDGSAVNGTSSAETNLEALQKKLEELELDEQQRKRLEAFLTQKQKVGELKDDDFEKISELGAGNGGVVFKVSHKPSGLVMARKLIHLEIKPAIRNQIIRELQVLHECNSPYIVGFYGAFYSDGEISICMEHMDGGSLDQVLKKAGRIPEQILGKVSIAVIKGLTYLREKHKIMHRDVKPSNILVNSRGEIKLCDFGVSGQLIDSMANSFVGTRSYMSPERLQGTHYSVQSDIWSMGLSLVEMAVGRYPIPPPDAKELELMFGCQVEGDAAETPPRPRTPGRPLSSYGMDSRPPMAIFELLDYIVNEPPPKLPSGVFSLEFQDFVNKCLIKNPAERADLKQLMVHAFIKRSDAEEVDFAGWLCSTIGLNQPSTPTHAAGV
Sequence of UniProt P08913 (whole entry, looked up): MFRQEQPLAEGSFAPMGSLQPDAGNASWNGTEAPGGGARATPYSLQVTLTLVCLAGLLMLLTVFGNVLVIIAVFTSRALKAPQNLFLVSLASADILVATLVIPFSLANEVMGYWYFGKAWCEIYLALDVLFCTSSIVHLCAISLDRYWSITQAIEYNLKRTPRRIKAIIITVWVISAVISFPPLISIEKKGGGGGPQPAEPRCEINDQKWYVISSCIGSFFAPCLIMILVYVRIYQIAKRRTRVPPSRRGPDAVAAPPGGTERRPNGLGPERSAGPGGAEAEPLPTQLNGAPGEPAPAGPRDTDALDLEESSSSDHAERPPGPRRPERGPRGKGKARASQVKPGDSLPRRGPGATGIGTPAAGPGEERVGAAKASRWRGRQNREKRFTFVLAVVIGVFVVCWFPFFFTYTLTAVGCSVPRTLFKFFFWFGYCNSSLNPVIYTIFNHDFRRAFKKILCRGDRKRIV
Sequence of UniProt Q9HBY8 (whole entry, looked up): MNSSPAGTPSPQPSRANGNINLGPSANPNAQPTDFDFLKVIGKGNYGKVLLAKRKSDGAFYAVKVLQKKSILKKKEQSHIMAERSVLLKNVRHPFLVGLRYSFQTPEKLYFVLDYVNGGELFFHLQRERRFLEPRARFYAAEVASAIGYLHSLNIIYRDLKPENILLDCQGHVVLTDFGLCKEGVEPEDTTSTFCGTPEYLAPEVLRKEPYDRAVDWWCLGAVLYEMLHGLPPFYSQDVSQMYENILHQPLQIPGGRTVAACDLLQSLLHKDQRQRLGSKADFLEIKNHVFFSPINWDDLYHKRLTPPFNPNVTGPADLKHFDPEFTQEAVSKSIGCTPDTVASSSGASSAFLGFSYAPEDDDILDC
Sequence of UniProt P08912 (whole entry, looked up): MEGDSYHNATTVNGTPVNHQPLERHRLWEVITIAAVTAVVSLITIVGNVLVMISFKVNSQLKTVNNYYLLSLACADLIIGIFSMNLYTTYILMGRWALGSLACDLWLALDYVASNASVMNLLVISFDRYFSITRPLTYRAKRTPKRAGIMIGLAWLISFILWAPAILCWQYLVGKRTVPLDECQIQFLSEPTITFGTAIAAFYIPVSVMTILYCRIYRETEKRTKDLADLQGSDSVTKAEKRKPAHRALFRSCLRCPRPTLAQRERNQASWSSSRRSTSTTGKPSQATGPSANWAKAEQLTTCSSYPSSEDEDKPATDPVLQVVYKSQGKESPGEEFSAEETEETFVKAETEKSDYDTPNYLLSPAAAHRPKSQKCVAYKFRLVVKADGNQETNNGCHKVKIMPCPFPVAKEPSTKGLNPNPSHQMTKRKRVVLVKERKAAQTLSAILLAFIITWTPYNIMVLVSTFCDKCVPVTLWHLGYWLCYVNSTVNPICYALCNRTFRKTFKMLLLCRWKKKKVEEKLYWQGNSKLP
Sequence of UniProt P35462 (whole entry, looked up): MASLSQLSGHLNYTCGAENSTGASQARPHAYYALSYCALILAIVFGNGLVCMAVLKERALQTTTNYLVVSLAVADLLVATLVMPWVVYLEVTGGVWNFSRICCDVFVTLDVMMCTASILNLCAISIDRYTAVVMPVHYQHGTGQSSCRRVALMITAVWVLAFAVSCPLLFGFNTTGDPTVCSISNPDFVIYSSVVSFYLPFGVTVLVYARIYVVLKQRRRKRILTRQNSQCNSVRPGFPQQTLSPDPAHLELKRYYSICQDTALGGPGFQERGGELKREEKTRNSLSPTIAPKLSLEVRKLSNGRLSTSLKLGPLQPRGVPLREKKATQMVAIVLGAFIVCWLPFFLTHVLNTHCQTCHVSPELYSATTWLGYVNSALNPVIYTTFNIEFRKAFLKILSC
Sequence of UniProt Q99640 (whole entry, looked up): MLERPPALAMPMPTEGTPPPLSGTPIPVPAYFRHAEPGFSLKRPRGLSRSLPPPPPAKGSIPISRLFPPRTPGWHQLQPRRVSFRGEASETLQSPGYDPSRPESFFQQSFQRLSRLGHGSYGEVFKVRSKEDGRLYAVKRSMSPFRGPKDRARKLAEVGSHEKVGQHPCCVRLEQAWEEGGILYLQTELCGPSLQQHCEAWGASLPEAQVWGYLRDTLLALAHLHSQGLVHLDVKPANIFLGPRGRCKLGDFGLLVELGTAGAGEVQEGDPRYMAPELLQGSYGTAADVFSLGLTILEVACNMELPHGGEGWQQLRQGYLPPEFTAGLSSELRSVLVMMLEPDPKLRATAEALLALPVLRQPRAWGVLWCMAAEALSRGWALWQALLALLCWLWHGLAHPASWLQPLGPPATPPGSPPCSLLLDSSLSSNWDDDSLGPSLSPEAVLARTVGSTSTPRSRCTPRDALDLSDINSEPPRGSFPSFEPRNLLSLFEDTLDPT
Sequence of UniProt P08588 (whole entry, looked up): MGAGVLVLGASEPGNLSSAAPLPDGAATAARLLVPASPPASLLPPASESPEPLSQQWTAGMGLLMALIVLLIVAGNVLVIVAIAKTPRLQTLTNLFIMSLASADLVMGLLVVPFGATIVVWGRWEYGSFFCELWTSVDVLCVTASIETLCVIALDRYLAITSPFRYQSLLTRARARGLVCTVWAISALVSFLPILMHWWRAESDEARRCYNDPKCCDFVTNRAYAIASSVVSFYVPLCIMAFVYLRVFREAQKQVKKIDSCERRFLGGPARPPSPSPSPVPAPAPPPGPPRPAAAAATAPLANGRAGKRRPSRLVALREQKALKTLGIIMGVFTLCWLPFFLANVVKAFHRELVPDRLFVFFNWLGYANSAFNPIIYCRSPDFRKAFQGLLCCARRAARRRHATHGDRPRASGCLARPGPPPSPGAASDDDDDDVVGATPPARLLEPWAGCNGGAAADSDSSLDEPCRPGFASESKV
Sequence of UniProt P50406 (whole entry, looked up): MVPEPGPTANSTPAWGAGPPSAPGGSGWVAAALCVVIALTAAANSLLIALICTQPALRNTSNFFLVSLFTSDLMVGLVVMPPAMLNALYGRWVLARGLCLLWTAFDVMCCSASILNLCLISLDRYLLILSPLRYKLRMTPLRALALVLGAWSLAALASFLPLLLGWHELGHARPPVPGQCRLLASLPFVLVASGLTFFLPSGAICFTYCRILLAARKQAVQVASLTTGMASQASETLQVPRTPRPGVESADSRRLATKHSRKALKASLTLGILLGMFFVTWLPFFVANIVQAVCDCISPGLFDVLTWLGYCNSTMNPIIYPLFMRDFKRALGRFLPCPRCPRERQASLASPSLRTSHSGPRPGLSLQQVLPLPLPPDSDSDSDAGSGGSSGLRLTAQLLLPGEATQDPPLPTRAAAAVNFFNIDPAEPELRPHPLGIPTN
Sequence of UniProt Q5BJF2 (whole entry, looked up): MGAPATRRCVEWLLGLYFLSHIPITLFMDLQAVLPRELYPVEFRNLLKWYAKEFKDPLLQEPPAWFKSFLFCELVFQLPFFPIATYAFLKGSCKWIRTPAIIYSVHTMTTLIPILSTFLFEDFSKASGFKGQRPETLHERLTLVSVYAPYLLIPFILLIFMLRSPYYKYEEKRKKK
Sequence of UniProt O60674 (whole entry, looked up): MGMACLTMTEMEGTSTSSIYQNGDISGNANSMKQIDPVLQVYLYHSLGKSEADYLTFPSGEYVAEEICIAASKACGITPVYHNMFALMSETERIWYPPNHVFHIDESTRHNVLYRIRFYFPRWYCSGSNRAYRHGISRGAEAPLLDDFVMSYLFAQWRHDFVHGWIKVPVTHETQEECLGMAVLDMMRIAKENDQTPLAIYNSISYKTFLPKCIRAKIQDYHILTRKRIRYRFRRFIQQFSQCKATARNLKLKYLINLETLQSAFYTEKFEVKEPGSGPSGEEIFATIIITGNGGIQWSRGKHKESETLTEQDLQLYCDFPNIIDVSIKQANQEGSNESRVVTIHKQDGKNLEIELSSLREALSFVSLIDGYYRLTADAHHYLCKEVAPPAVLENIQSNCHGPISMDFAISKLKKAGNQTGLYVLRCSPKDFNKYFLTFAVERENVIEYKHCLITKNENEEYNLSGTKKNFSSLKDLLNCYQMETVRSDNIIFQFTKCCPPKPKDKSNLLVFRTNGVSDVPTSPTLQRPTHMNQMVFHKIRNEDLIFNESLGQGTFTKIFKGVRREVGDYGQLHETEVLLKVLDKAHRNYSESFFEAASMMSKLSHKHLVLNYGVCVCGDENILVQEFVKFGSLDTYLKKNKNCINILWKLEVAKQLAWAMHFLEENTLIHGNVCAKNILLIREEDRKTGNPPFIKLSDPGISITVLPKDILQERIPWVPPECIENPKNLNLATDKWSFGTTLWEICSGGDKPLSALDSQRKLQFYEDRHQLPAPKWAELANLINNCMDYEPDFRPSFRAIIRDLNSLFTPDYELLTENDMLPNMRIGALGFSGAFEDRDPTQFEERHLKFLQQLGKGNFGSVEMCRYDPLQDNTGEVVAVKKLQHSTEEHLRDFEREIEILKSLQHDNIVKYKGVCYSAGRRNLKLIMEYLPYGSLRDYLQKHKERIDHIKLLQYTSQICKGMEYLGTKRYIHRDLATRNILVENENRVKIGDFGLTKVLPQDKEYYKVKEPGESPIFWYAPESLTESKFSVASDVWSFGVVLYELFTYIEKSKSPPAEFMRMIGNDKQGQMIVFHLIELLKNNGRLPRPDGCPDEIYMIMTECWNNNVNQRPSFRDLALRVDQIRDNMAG

Block 1 — effect on: enzyme activity; tested at: 5 µM; baseline: untreated control
SMILES: O=C(Nc1cnn(-c2csc(C(=O)NC3COC3)c2)c1)Nc1ccccc1Cl
| target | remaining activity [%] |
| --- | --- |
| PKMYT1 (Homo sapiens, UniProt Q99640) | 86.8 |
| MAP2K1 (Homo sapiens, UniProt Q02750) | 102 |
| PAK3 (Homo sapiens, UniProt O75914) | 96.8 |
| TNIK (Homo sapiens, UniProt Q9UKE5) | 51.9 |
| JAK2 (Homo sapiens, UniProt O60674) | 95.4 |
| AXL (Homo sapiens, UniProt P30530) | 93.8 |
| SGK2 (Homo sapiens, UniProt Q9HBY8) | 100 |

Block 2 — species: C57BL/6 CES1-/- mice, EL4 tumour; sample: EL4 tumour; route: subcutaneous; dose: 0.3 mg/kg/day DON equivalent; time: 5 days
Structure (SMILES): CC(=O)N[C@@H](Cc1c[nH]c2ccccc12)C(=O)N[C@@H](CCC(=O)C=[N+]=[N-])C(=O)OC(C)C
| technique | refers to | setting | direction | metabolite peak intensity |
| --- | --- | --- | --- | --- |
| LC-MS/MS metabolomics | phenylalanine |  | higher = more metabolite | 1.94e+09 a.u. and 2.49e+09 a.u. and 2.27e+09 a.u. and 2.48e+09 a.u. and 1.99e+09 a.u. and 2.24e+09 a.u. |
| UPLC-MS/MS | N-acetyl-beta-alanine |  |  | 6.99e+06 a.u. and 8.58e+06 a.u. and 7.41e+06 a.u. and 6.81e+06 a.u. and 9.69e+06 a.u. and 1.08e+07 a.u. |
| LC-MS/MS metabolomics | mannose |  | higher = more metabolite | 5.32e+06 a.u. and 5.37e+06 a.u. and 5.42e+06 a.u. and 6.52e+06 a.u. and 5.01e+06 a.u. and 4.24e+06 a.u. |
| LC-MS/MS metabolomics | 2-aminoadipate | normalised to tissue mass | higher = more metabolite | 4.84e+06 a.u. and 1.07e+07 a.u. and 3.82e+06 a.u. and 8.64e+06 a.u. and 9.89e+06 a.u. and 3.83e+06 a.u. |
| UPLC-MS/MS metabolomics | glucosamine 6-phosphate | normalised to tissue mass |  | 8.01e+07 a.u. and 9.86e+07 a.u. and 9.24e+07 a.u. and 1.01e+08 a.u. and 8.8e+07 a.u. and 6.91e+07 a.u. |
| UPLC-MS/MS metabolomics | N-monomethylarginine | normalised to tissue mass | higher = more metabolite | 3.79e+07 a.u. and 3.11e+07 a.u. and 2.98e+07 a.u. and 3.89e+07 a.u. and 3.38e+07 a.u. and 3.65e+07 a.u. |
| LC-MS/MS metabolomics | 2-isopropylmalate | normalised to tissue mass | higher = more metabolite | 1.52e+07 a.u. and 2.65e+06 a.u. and 2.29e+06 a.u. and 5.33e+06 a.u. and 5.32e+06 a.u. and 2.79e+06 a.u. |

Block 3 — species: mouse; sample: microsomes or S9; tested at: 2 µM; time: 0.5 h
| SMILES | remaining compound |
| --- | --- |
| COc1nn(C)c(=O)n1-c1ccccc1NC(=O)c1ccc(Cl)cc1Cl | 72.9% |
| CCS(=O)(=O)c1ccc(Cc2ccc(S(=O)(=O)CC)cc2)cc1 | > 99% |
| COc1cc(=O)n(C)cc1C(=O)N1CCC(n2cc(-c3ccccc3)nn2)C1 (stereo not drawn) | 91.4% |
| Cc1nnc2ccc(N3CCNc4ccccc4C3)nn12 | 79.9% |
| COc1cc(=O)n(C)cc1C(=O)Nc1cc(C)nc2ccccc12 | 38.2% |
| CC(=O)/N=C1\N(c2ccc(Cl)cc2Cl)C(=O)N(S(=O)(=O)c2ccc(Cl)cc2)C1(C)C(C)C (stereo not drawn) | 6.44% |
| Nc1nc(N2C(=O)C3CC=CCC3C2=O)nn1-c1ccccc1 (stereo not drawn) | 75.3% |
| CCn1c(=O)c2sccc2n2c(CCC(=O)NCc3ccc(F)cc3)nnc12 | 6.95% |
| COc1ccc(C(=O)N2CCn3c(nnc3[C@@H]3C[C@@H](O)CN3C(=O)C(C)C)C2)c(C)c1 | > 100% |
| COc1cccc(-c2nc3cc(Cl)ccc3c3ccnn23)c1Cl | 0.0966% |
| CCCc1cc(=O)[nH]c(-n2nc(C)cc2NC(=O)COc2ccccc2C)n1 | 20.2% |

Block 4 — effect on: binding; technique: radioligand binding; tested at: 10 µM
SMILES: CCS(=O)(=O)c1cc2cc(C[C@@](O)(CC(C)(C)c3ccc(F)cc3C(N)=O)C(F)(F)F)[nH]c2cn1
| target | inhibition [%] |
| --- | --- |
| DRD3 (Homo sapiens, UniProt P35462) | 1.8 |
| DRD4 (Homo sapiens, UniProt P21917) | 5.32 |
| ADRB2 (Homo sapiens, UniProt P07550) | 15.2 |
| ADRA1A (Homo sapiens, UniProt P35348) | -10.1 |
| CHRM5 (Homo sapiens, UniProt P08912) | -0.62 |
| ADRB1 (Homo sapiens, UniProt P08588) | -8.85 |
| ADRA2A (Homo sapiens, UniProt P08913) | -5.76 |
| SIGMAR1 (Homo sapiens, UniProt Q99720) | 8.26 |
| HTR6 (Homo sapiens, UniProt P50406) | -3.13 |
| TMEM97 (Homo sapiens, UniProt Q5BJF2) | -13 |
| DRD2 (Homo sapiens, UniProt P14416) | -8.41 |

For quick reference, copied from above (block 3):
| SMILES | remaining compound |
| --- | --- |
| COc1cc(=O)n(C)cc1C(=O)Nc1cc(C)nc2ccccc12 | 38.2% |
| CC(=O)/N=C1\N(c2ccc(Cl)cc2Cl)C(=O)N(S(=O)(=O)c2ccc(Cl)cc2)C1(C)C(C)C (stereo not drawn) | 6.44% |
| Nc1nc(N2C(=O)C3CC=CCC3C2=O)nn1-c1ccccc1 (stereo not drawn) | 75.3% |
| CCn1c(=O)c2sccc2n2c(CCC(=O)NCc3ccc(F)cc3)nnc12 | 6.95% |
| COc1ccc(C(=O)N2CCn3c(nnc3[C@@H]3C[C@@H](O)CN3C(=O)C(C)C)C2)c(C)c1 | > 100% |
